Measured values pooled from the literature.
± gives the spread as reported.

C=CC(=O)N1CCC(c2cc(Nc3cc4n(n3)CCOC4)c3ncnn3c2)C1 (single isomer, unassigned)
maximum inhibition (TMD8; calcium flux, FLIPR; 1 h preincubation, added: anti-IgM): 13.1%

O=C1Nc2cccc(C#CC3(O)CCNCC3)c2/C1=C/c1cc2ccccc2[nH]1
invadopodia formation (C8161.9 expressing LIC2 S202A; 100 nM; reference: DMSO): no effect

CCN1CCN(c2ccc(Nc3ncc4c(n3)N(C)C(=O)N(c3cc(NC(=O)c5cccc(C(F)(F)F)c5)ccc3C)C4)cn2)CC1
GI50 (HepG2 (FGFR4 overexpressing); cell proliferation, CellTiter-Glo; 72 h): 440 ± 120 nM

C=CC(=O)Nc1cccc(N(C(=O)OCc2ccc(F)cc2)c2ccnc(Nc3ccn(C)n3)n2)c1
EC50 (Ba/F3 wild-type HER2; cell growth; above 10 µM not active): 3.8 ± 0.74 nM

Cc1ccc(NC(=O)c2ccc(CN3CCC(N(C)C)C3)c(C(F)(F)F)c2)cc1N1Cc2cnc(Nc3cnn(C)c3)nc2N(C)C1=O (centres unmarked)
GI50 (Hep3B (FGFR4 overexpressing); cell proliferation, CellTiter-Glo; 72 h): 94 ± 20 nM

COC(=O)[C@@]1(C)C=C(C(=O)Nc2cccc(C(=O)NC34CC(Nc5nccc(-c6cccnc6)n5)(C3)C4)c2)C(=O)CC1
AP1 reporter activity (HEK293 AP1 reporter cells; reporter gene, inhibitor, luciferase reporter; 1 µM, 6 h, unit not given, added: PMA; reference: PMA-stimulated): 0.795

Cc1ccccc1OCCCSCc1nc2ccccc2[nH]1
EC 2-fold increase (SW620-GFP+ organoids; reporter gene, activator, item: E-cadherin RFP reporter; reference: untreated): 35.4 µM

CC(=O)N1CCN(c2ccc(Nc3ncc4c(n3)N(C)C(=O)N(c3cc(NC(=O)c5cccc(C(F)(F)F)c5)ccc3C)C4)cn2)CC1
GI50 (HepG2 (FGFR4 overexpressing); cell proliferation, CellTiter-Glo; 72 h): 369 ± 160 nM

CCOc1ccccc1Nc1nnc(SCC(=O)Nc2cc(F)ccc2F)s1
IFN-γ secretion (co-cultured human PBMCs; MucilAir airway epithelium; 10 µM, 48 h, added: anti-CD3/CD28): 421 ± 13 pg/mL

CCCCCCCCCCCCCC[C@@H](O)[C@@H](O)[C@H](CO[C@H]1O[C@H](CO)[C@H](O)[C@H](O)[C@H]1O)NC(=O)CCCCCc1ccccc1
IL-4 secretion (human Vα24+ NKT cells; agonist, ELISA; 10 ng/mL, 24 h, unit not given, added: CD1d-transfected HeLa cells; reference: α-GalCer): 0.73 ± 0.16

CCOc1cc(C(C)(C)C)ccc1C1=N[C@H](c2ccc(Cl)cc2)[C@H](c2ccc(Cl)cc2)N1C(=O)N1CCN(CC(=O)NCCOCCOCCOCCNC(=O)CN2CCN(C(=O)N3C(c4ccc(C(C)(C)C)cc4OCC)=N[C@H](c4ccc(Cl)cc4)[C@@H]3c3ccc(Cl)cc3)CC2=O)C(=O)C1
IC50 (A549; cell growth, CCK-8): 11000 ± 1400 nM

O=C(NNC(=S)Nc1cccc(C(F)(F)F)c1)c1cccn1-c1ccc(F)cc1
time to p-tau reduction (HeLa expressing tau-0N4R; western blot, item: phosphorylated tau; concentration not given): 1 h

Cc1ccccc1C(C(=O)NC1CCCCC1)N(C(=O)Cn1ccnc1C)c1cccc([125I])c1 (racemic)
uptake increase (wild-type IDH1 astrocytoma cells; cell uptake; 50 µM; reference: uptake without blocker): 1.5 to 1.8 fold

COC(=O)[C@@H]1C(c2nc3cncnc3[nH]2)=Cc2cc3c(cc2[C@H]1c1cc(OC)c(OC)c(OC)c1)OCO3
EC50 (Leishmania infantum; promastigote, iRFP): > 100000 nM

CCCCCCCCCCCCCC[C@@H](O)[C@@H](O)[C@H](CO[C@H]1O[C@H](CO)[C@H](O)[C@H](O)[C@H]1O)NC(=O)CCCCCCCCCCc1ccc(F)cc1
IFN-γ secretion (human Vα24+ NKT cells; agonist, ELISA; 10 ng/mL, 24 h, unit not given, added: CD1d-transfected HeLa cells; reference: α-GalCer): 2.13 ± 0.003

O=C(N/N=C/c1ccc(Sc2ncccn2)o1)c1cccc(F)c1
GI50 (D458 medulloblastoma; cell growth): 62000 nM

CC[C@@H](C)[C@H](N)C(=O)N1Cc2ccc(F)cc2C1
IC50 (THP-1; cell viability, CellTiter-Glo): 500 nM

COC(=O)[C@@H]1C(C=Nc2ccccc2)=Cc2cc3c(cc2[C@H]1c1cc(OC)c(OC)c(OC)c1)OCO3
EC50 (Leishmania infantum; iRFP fluorescence; mouse splenocytes infected, amastigote, iRFP, ex vivo splenic explant; 48 h): 19900 ± 2100 nM

O=C(N/N=C/c1ccc(Sc2ncccn2)o1)c1cccc(OC(F)(F)F)c1
GI50 (D458 medulloblastoma; cell growth): 76000 nM

COc1cccc2c1C(=O)N1CCc3c([nH]c4ccccc34)C1N2Cc1ccc(C(=O)NCCCC(=O)NO)cc1 (racemic)
antiproliferative activity (HCT-116, MCF7, A549 cells; CCK-8; concentration not given): inactive

[N-]=[N+]=NCc1cc(N=[N+]=[N-])cc(C(=O)NCCCc2cc(C(=O)[O-])c[n+]([C@@H]3O[C@H](COP(=O)(O)OP(=O)(O)OC[C@H]4O[C@@H](n5cnc6c(N)ncnc65)[C@H](OP(=O)(O)O)[C@@H]4O)[C@@H](O)[C@H]3O)c2)c1
peak calcium response (SK-BR-3 expressing TPC2; calcium release, microinjection; concentration not given; reference: TPC2 over non-transfected): ~5 fold

CCN1CCN(c2ccc(Nc3ncc4c(n3)N(C)C(=O)N(c3cc(NC(=O)c5cccc(C(F)(F)F)c5)ccc3C)C4)cc2)CC1
GI50 (Huh-7 (FGFR4 overexpressing); cell proliferation, CellTiter-Glo; 72 h): 25 ± 20 nM

CCOc1ccc(S(=O)(=O)NC(=O)Cc2ccc(I)cc2)cc1Br
inhibition (THP-1; cGAMP level, item: cGAMP; cell lysate; 30 µM): 27%

CCCCCCCCCCCCCC[C@@H](O)[C@@H](O)[C@H](CO[C@H]1O[C@H](CO)[C@H](O)[C@H](O)[C@H]1O)NC(=O)CCCCCCCCCCc1ccc(C(F)(F)F)cc1
IFN-γ/IL-4 ratio (human Vα24+ NKT cells; agonist; 10 ng/mL, 24 h, added: CD1d-transfected HeLa cells; reference: α-GalCer): 1.89 ± 0.22

COCCCn1nc(-c2ccc(CC(=O)Nc3cc(C(C)(C)C)on3)cc2)c2c(N)ncnc21
EC50 (LC-2/ad (CCDC6-RET fusion); cell viability): 16 nM

CCCCCCCCCCCCCC[C@@H](O)[C@@H](O)[C@H](CO[C@H]1O[C@H](CO)[C@H](O)[C@H](O)[C@H]1O)NC(=O)CCCCCCCCCc1ccccc1
IFN-γ/IL-4 ratio (human Vα24+ NKT cells; agonist; 10 ng/mL, 24 h, added: CD1d-transfected HeLa cells; reference: α-GalCer): 1.46 ± 0.15

O=C(N/N=C/c1ccc(Sc2ncccn2)o1)c1cccc(Br)c1
GI50 (D458 medulloblastoma; cell growth): > 100000 nM

CN(C)C(=O)Cn1cc(-c2ccc(-c3cncc4ccncc34)cc2)cn1
increase in lysis (HL-60 with human NK cells; ADCC, chromium-51 release; concentration not given, added: CD33 antibody BI 836858; reference: antibody alone): 7 to 17%

CC(=O)N1CCN(c2ccc(Nc3ncc4c(n3)N(C)C(=O)N(c3cc(NC(=O)c5ccc(CN6CCC(N(C)C)C6)c(C(F)(F)F)c5)ccc3C)C4)cn2)CC1 (centres unmarked)
GI50 (Hep3B (FGFR4 overexpressing); cell proliferation, CellTiter-Glo; 72 h): 8 nM

Nc1ccc2cc(N)ncc2c1
mRNA level (LX-2; qPCR, item: COL1A1; concentration not given, added: TGF-β1): decreased

CCCCCCCCCCCCCC[C@@H](O)[C@@H](O)[C@H](CO[C@H]1O[C@H](CO)[C@H](O)[C@H](O)[C@H]1O)NC(=O)CCCCCCCCCCCCCCc1ccccc1
IL-4 secretion (human Vα24+ NKT cells; agonist, ELISA; 10 ng/mL, 24 h, unit not given, added: CD1d-transfected HeLa cells; reference: α-GalCer): 0.71 ± 0.1

CN1CCN(c2ccc(-c3cccc(CN4CCN(CCNC(=O)CCCCCCCNc5cccc6c5C(=O)N(C5CCC(=O)NC5=O)C6=O)CC4)c3)cc2NC(=O)c2c[nH]c(=O)cc2C(F)(F)F)CC1 (centres unmarked)
transcriptionally suppressed genes (MV4;11; GRO-seq; 0.5 µM, 4 d, unit not given; reference: DMSO): 189

CC(=O)OC1CC[C@H]2C3=C(CC[C@]12C)[C@]1(C)c2c(coc2C3=O)[C@H](OC(C)=O)[C@@H]2O[C@@H]21 (some centres unmarked)
ROS level (MDA-MB-231; DCFH-DA fluorescence; 50 µM; reference: untreated): 3 fold

CCCCCCCCCCCCCC[C@@H](O)[C@@H](O)[C@H](CO[C@H]1O[C@H](CO)[C@H](O)[C@H](O)[C@H]1O)NC(=O)CCCCCCCCCCc1ccccc1
IL-4 secretion (human Vα24+ NKT cells; agonist, ELISA; 10 ng/mL, 24 h, unit not given, added: CD1d-transfected HeLa cells; reference: α-GalCer): 0.87 ± 0.28

CN1CCN(c2cc(C(=O)Nc3ccc4c(c3)-c3c(c(C(N)=O)nn3-c3ccc(F)cc3)CC4)c(Cl)cn2)CC1
NEMO-IKK-2 interaction (rheumatoid arthritis synovial fibroblasts; proximity ligation): no effect

Cc1ccc(NC(=O)c2cccc(C(F)(F)F)c2)cc1N1Cc2cnc(Nc3cnn(C)c3)nc2N(C)C1=O
GI50 (HepG2 (FGFR4 overexpressing); cell proliferation, CellTiter-Glo; 72 h): 397 ± 220 nM

Cc1nn(C)c2c(C(C(=O)O)N3CC(OCCCCc4ccc5c(n4)NCCC5)C3)cccc12 (centres unmarked)
ILK phosphorylation (PAH PASMCs; Western blot): no effect

Cc1cc(Nc2ncc3c(n2)N(C)C(=O)N(c2cc(NC(=O)c4cccc(C(F)(F)F)c4)ccc2C)C3)n(C)n1
GI50 (HepG2 (FGFR4 overexpressing); cell proliferation, CellTiter-Glo; 72 h): 597 ± 430 nM

CC(=NN=c1[nH]c2cc(F)c(F)cc2n1C)c1ccc(F)cn1
inhibition (MDA-MB-231; cell invasion, Matrigel; 50 nM, 48 h; reference: vehicle): ~40%

CCCCCCCCCCCCCC[C@@H](O)[C@@H](O)[C@H](CO[C@H]1O[C@H](CO)[C@H](O)[C@H](O)[C@H]1O)NC(=O)CCCCCCCc1ccc(-c2ccccc2)cc1
IFN-γ/IL-4 ratio (human Vα24+ NKT cells; agonist; 10 ng/mL, 24 h, added: CD1d-transfected HeLa cells; reference: α-GalCer): 0.3 ± 0.01

COc1ccc(CCC2OC(=O)C3CCCCN3C(=O)C(=O)C(C)(C)COC(=O)C=CCCN(C)C(=O)CNC(=O)C(COC(C)(C)C)N(C)C(=O)C(Cc3ccc4ccccc4c3)NC(=O)C(C)N(C)C(=O)COc3cccc2c3)cc1OC (centres unmarked)
viability (A549; alamar blue; concentration not given): active
